Published values of several laboratories.
± gives the spread as reported.

| Structure (SMILES) | assay | test system | setting | scale | endpoint | result |
| --- | --- | --- | --- | --- | --- | --- |
| CC[C@H](C)[C@@H]1NC(=O)[C@H](Cc2ccc(O)cc2)NC(=O)CCCSC[C@@H](C(=O)N(CC(=O)N[C@@H](CC(C)C)C(=O)NCC(N)=O)Cc2ccc(F)cc2)NC(=O)[C@H](CC(N)=O)NC(=O)[C@H](CCC(N)=O)NC1=O |  | human, plasma | intranasal, single dose | reference: intravenous | absolute bioavailability | 3.7% |
| COc1cccc(OC)c1-c1cc(C(=O)NC2(C(=O)O)C3CC4CC(C3)CC2C4)nn1-c1ccc(C(=O)N(C)CCOCCOCCN(C)C(=O)[C@H](CCCCNC(=O)[C@H](CC(C)C)NC(=O)C2OC2C(=O)O)NC(=O)CN2CCN(CC(=O)[O-])CCN(CC(=O)[O-])CCN(CC(=O)[O-])CC2)cc1C(C)C.[177Lu+3] (mixture of isomers) |  | mouse, HT-29 xenograft | 4 h post injection, biodistribution | reference: tumour over lung uptake | tumour-to-lung ratio | 3 |
| O=C(NNCc1ccccc1)C1(C(F)(F)F)CC1 |  | PBS | 2 h, pH 7.4, 25 °C |  | solubility | ≥ 400 µM |
| O=C(Oc1ccccc1)c1ccc(O)cc1 |  | empty Transwells without cells | 5 µM, 60 min, apical to basolateral |  | mass balance | 38% |
| CC(C)[C@H](NC(=O)[C@H](Cc1c[nH]c2ccccc12)NC(=O)[C@H](CCCNC(=N)N)NC(=O)[C@H](CCCNC(=N)N)NC(=O)[C@@H](NC(=O)[C@@H](NC(=O)[C@H](CCCNC(=N)N)NC(=O)[C@@H](NC(=O)[C@@H](NC(=O)[C@H](CCCNC(=N)N)NC(=O)[C@H](CCCNC(=N)N)NC(=O)[C@@H](NC(=O)[C@H](Cc1c[nH]c2ccccc12)NC(=O)[C@H](CCCNC(=N)N)NC(=O)[C@H](CCCNC(=N)N)NC(=O)[C@@H](NC(=O)[C@H](CCCNC(=N)N)NC(=O)[C@H](CCCNC(=N)N)NC(=O)[C@@H](NC(=O)[C@H](Cc1c[nH]c2ccccc12)NC(=O)[C@H](CCCNC(=N)N)NC(=O)[C@@H](N)CCCNC(=N)N)C(C)C)C(C)C)C(C)C)C(C)C)C(C)C)C(C)C)C(C)C)C(=O)N[C@@H](CCCNC(=N)N)C(=O)N[C@@H](CCCNC(=N)N)C(=O)O | dipstick | CD-1 mice | intravenous, 15 mg/kg, 6-24 h |  | urine pH | 6.5 |
| CCCCC/C=C\CCCO[Si](CCCCN1CCCCC1)(OCCC/C=C\CCCCC)OCCC/C=C\CCCCC |  |  | pH 5.5, formulated |  | zeta potential | 1.35 mV |
| CC(C(=O)O)n1nc(Cn2cc3cc(OCC[18F])c(Cl)cc3n2)c2ccccc2c1=O (racemic) |  | rat, spleen | 1 h |  | tracer uptake | 0.05 %ID/g |
| C=C(NC(=O)c1csc(-c2nc3c(cc2O)-c2nc(cs2)C(=O)NC(C(C)O)C(=O)NC(=C(C)OC)c2nc(cs2)C(=O)NC2c4nc(cs4)C(=O)NC(COC(=O)c4c5c6c(cccc6n4O)COC(=O)C(OC4CC(C)(O)C(N(C)C)C(C)O4)C2OC5)c2nc-3cs2)n1)C(N)=O (stereo not shown) |  | female Sprague-Dawley rat, plasma | intravenous, 6 mg/kg, single dose, infusion |  | Cmax | 5240 ng/mL |
| Cc1cc(-c2ccc(C(=O)[C@@H]3CCCC[C@H]3C(=O)Nc3cnn4c3C(=O)NCC4)cc2)[nH]n1 |  | human, urine | oral, 200 mg, 0-12 h | reference: dose | cumulative recovery of radioactivity | 4.74% |
| Cc1nc(N)nc2c1C(=O)N[C@@H](c1ccc(F)cc1-c1cccc(O[11CH3])n1)C2 | ex vivo biodistribution | mice, MDA-MB-231 subcutaneous xenograft, bone | 60 min post-injection, baseline, vehicle pre-treatment |  | SUV | 0.7 ± 0.1 |
| N#Cc1ccnc(N2C(=O)CC[C@H]2C(=O)N(c2cncc(F)c2)[C@H](C(=O)NC2CC(F)(F)C2)c2ccccc2Cl)c1 |  | cynomolgus monkey, plasma |  |  | half-life | 5.3 h |
| C/C(N)=N/C(=N\S(=O)(=O)c1ccc(C(F)(F)F)cc1)N1C[C@H](c2ccccc2)C(c2ccc(Cl)cc2)=N1 |  | C57BL/6 mouse, male, liver | intravenous, 10 mg/kg | reference: liver over plasma | tissue/plasma ratio | 10 |
| CSCC[C@H](N)C(=O)N[C@@H](CO)C(=O)N[C@H](C(=O)N[C@@H](C)C(=O)NCC(=O)N[C@@H](CC(C)C)C(=O)N[C@@H](CCCCN)C(=O)N[C@@H](CCCCN)C(=O)N[C@@H](CCC(N)=O)C(=O)N[C@@H](Cc1c[nH]c2ccccc12)C(=O)N[C@@H](Cc1c[nH]cn1)C(=O)N[C@@H](CCCCN)C(=O)N[C@@H](C)C(=O)N[C@H](C(=O)N[C@@H](CCC(N)=O)C(=O)N[C@@H](CCCCN)C(=O)N[C@H](C(=O)N[C@@H](CO)C(=O)N[C@@H](CCC(=O)O)C(=O)N[C@@H](CCCCN)C(=O)N[C@H](C(=O)NCC(=O)NCC(=O)N[C@@H](C)C(N)=O)C(C)C)C(C)C)[C@@H](C)O)C(C)C | circular dichroism | aqueous TFE | 50 µM, pH 7.4, 20 °C |  | m value | 2.6 ± 0.3 kcal/mol/M |

Some of these lines once more:
| Structure (SMILES) | assay | test system | setting | scale | endpoint | result |
| --- | --- | --- | --- | --- | --- | --- |
| CC(C(=O)O)n1nc(Cn2cc3cc(OCC[18F])c(Cl)cc3n2)c2ccccc2c1=O (racemic) |  | rat, spleen | 1 h |  | tracer uptake | 0.05 %ID/g |
